# Measurements of several laboratories.
# Protocols differ between the studies behind these lines. Values joined by “and” are separate records of one study, mostly repeats; a detail may differ. ± gives the spread as reported.
# GAP50: Glideosome-associated protein 50 (GAP50, Plasmodium falciparum, UniProt Q8I2X3)
# UniProt Q8I2X3, sequence (whole entry, looked up): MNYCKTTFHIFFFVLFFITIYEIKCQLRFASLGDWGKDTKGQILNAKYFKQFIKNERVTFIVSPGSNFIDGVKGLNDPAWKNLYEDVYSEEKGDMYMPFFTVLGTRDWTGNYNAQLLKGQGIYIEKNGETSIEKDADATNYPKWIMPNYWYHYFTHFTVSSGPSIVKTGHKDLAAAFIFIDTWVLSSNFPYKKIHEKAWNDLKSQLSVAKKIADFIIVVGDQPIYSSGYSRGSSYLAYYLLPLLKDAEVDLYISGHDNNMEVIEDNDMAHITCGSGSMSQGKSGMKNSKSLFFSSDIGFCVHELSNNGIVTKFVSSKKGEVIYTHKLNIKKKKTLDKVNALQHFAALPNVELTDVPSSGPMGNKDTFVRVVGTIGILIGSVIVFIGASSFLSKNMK
# HDAC10: Polyamine deacetylase HDAC10 (HDAC10, Homo sapiens, UniProt Q969S8)
# UniProt Q969S8, sequence (whole entry, looked up): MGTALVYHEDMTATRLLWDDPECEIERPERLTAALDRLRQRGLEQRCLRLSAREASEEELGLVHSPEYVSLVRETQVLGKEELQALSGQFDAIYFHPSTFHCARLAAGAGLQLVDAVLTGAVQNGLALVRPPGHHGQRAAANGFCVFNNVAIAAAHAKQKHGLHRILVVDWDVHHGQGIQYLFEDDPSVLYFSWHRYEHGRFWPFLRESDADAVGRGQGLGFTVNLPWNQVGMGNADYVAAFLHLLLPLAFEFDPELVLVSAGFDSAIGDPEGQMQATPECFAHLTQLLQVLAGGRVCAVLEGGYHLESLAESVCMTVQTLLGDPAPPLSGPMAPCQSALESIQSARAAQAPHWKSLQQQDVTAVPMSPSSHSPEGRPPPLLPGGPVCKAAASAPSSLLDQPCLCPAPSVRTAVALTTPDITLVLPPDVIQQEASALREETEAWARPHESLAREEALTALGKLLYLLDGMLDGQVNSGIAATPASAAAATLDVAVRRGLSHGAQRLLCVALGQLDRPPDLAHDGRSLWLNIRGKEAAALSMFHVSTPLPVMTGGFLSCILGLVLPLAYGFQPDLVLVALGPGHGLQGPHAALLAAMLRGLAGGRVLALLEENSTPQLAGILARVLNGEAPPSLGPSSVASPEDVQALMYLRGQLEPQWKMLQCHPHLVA
# USP51 ZnF-UBD domain: Ubiquitin carboxyl-terminal hydrolase 51, ZnF-UBD domain (USP51, Homo sapiens, UniProt Q70EK9)
# UniProt Q70EK9, sequence (whole entry, looked up): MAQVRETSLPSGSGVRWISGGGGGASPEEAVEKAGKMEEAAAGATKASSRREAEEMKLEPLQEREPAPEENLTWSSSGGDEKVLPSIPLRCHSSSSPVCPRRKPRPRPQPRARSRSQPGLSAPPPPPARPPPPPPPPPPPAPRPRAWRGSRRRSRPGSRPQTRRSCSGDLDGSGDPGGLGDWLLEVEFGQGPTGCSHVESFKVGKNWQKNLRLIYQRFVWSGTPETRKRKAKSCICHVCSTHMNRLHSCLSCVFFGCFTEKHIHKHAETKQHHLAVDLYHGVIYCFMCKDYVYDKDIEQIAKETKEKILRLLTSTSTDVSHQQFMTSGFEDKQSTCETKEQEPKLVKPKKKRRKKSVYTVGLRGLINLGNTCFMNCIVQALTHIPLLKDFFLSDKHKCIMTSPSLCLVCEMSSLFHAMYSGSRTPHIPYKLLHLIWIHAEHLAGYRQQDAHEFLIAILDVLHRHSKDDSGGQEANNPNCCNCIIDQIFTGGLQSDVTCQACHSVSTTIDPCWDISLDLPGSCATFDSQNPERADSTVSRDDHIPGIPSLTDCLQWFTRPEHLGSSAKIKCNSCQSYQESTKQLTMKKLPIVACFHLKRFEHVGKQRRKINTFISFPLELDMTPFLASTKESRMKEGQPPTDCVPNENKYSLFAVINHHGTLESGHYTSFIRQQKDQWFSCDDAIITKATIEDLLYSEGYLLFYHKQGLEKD
# Maoa: Amine oxidase [flavin-containing] A (Maoa, Rattus norvegicus, UniProt P21396)
# UniProt Q9HC29, sequence (whole entry, unmodified, looked up): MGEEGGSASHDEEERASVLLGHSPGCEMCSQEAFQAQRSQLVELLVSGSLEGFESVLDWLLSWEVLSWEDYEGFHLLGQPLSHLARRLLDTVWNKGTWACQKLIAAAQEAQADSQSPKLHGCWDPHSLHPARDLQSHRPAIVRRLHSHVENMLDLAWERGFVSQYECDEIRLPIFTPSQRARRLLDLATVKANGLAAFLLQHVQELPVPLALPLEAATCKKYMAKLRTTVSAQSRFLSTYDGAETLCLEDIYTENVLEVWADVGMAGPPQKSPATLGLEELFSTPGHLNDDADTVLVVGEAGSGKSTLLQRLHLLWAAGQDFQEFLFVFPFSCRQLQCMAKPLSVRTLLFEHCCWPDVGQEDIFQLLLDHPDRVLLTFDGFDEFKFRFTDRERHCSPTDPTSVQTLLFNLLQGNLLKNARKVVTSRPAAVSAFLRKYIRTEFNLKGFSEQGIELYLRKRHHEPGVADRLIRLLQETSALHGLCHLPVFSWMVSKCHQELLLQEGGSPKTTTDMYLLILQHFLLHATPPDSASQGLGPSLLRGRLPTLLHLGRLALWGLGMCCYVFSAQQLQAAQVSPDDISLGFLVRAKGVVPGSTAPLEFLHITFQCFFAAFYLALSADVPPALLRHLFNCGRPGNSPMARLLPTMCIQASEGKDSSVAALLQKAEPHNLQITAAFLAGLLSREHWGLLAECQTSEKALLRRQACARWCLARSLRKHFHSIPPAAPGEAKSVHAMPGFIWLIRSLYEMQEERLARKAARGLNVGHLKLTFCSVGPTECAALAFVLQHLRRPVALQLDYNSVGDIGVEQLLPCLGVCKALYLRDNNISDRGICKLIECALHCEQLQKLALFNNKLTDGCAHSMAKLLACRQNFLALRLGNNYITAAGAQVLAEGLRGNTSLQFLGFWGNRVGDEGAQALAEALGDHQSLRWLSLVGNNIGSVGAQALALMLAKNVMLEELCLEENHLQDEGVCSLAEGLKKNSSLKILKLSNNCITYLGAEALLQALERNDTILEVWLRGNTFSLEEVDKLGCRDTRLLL
# UniProt P21396, sequence (whole entry, looked up): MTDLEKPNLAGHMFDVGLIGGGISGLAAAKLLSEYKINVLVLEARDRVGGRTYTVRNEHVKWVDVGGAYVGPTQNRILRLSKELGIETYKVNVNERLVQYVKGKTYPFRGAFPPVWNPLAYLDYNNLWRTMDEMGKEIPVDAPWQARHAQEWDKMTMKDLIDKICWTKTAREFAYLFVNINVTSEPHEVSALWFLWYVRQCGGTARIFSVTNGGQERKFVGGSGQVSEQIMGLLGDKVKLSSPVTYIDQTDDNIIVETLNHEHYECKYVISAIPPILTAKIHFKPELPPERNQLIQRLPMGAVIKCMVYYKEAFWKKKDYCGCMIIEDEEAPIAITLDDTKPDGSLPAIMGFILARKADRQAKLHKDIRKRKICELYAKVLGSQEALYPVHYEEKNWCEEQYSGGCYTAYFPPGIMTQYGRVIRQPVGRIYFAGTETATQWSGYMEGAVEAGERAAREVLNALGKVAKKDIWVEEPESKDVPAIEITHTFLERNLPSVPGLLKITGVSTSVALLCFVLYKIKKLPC
# UniProt Q9ULX7, sequence (whole entry, looked up): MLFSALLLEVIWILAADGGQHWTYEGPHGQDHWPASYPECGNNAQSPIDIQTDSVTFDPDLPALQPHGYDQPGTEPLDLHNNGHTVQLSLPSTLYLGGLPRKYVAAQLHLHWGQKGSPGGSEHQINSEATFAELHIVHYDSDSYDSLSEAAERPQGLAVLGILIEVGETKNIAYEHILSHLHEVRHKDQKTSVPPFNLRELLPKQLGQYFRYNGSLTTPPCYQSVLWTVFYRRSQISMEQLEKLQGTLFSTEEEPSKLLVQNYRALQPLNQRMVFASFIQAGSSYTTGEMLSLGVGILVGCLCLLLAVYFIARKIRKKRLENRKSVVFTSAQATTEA
# UniProt P42684, sequence (whole entry, looked up): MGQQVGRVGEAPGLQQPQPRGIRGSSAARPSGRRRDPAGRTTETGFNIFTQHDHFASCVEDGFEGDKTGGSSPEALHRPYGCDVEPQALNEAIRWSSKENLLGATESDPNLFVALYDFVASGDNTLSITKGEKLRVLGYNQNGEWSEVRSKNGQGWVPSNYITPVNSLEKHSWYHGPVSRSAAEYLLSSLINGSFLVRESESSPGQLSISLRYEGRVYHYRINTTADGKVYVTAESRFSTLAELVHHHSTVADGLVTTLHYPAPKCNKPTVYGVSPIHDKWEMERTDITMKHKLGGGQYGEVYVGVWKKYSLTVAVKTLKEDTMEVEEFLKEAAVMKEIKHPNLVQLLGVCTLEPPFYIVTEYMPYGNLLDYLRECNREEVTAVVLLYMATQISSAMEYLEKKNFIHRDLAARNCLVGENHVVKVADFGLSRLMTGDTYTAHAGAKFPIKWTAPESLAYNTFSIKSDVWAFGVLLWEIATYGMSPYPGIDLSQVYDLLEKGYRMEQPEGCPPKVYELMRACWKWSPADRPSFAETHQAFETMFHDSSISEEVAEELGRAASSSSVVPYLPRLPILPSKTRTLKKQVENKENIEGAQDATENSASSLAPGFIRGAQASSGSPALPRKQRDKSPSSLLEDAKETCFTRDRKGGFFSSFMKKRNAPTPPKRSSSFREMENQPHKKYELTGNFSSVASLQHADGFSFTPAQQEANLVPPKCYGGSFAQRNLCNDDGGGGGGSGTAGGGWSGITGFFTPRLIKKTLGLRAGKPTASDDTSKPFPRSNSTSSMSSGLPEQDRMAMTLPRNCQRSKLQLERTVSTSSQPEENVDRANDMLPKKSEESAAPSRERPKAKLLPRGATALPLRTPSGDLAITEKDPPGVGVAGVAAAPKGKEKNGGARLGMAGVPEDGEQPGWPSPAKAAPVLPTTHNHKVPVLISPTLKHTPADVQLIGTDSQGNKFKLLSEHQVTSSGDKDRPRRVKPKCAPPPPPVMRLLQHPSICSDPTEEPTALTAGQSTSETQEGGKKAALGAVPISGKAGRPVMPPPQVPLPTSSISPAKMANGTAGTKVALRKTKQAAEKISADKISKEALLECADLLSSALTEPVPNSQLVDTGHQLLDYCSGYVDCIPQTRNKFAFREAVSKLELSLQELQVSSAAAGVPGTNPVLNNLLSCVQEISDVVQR
# UniProt Q96EK6, sequence (whole entry, looked up): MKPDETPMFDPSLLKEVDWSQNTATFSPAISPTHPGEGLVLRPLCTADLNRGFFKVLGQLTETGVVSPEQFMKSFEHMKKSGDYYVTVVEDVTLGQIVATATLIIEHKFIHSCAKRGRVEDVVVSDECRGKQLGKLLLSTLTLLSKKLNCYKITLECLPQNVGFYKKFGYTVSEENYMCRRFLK
SMILES,target,assay,system,conditions,Kd
COC(=O)C(C)OC1C(O)C(CO)OC(O)C1NC(C)=O (stereo not shown),"NOD2 (Homo sapiens, UniProt Q9HC29)","binding, backscattering interferometry",HEK293T cell vesicles,,0.003 to 0.03 µM
Cc1ccc2oc(-c3cc(NC(=O)Cc4ccccc4)ccc3Cl)nc2c1,GAP50,"binding, surface plasmon resonance",,1:1 binding model,36.1 µM
O=C(CCCCCCNC(=O)c1cnc(N(c2ccccc2)c2ccccc2Cl)nc1)NO,HDAC10,"inhibitor, competition pulldown",SW620 and MV4-11 lysate,1 h,3.35 µM
COc1cc(O)c2c(c1)oc(=O)c1c3cc(O)c(O)cc3oc21,"MAL12 (Saccharomyces cerevisiae S288c, UniProt P53341)",fluorescence quenching,,307 K,6.17 µM
c1cncc(NCc2ccc(-c3cc4ccncc4cc3OC3CCNCC3)s2)c1,GAP50,"binding, surface plasmon resonance",,1:1 binding model,45.8 µM
O=C(O)CCn1nnc(-c2ccccc2)n1,USP51 ZnF-UBD domain,,,,> 1000 µM
[Ca+2].[Cl-].[Cl-],"Metacaspase-2 (MCA2, Trypanosoma brucei brucei, UniProt Q585F3)","binding, low-affinity site, intrinsic fluorescence",,"pH 7.4, 25 °C",900 ± 100 µM
C=C(C)C(=O)NCCCC[C@H](NC(=O)[C@H](CCCNC(=N)N)NC(=O)[C@@H]1CCCN1C(=O)[C@H](C)NC(C)=O)C(=O)N[C@@H](CCC(N)=O)C(=O)N[C@@H](CC(C)C)C(=O)N[C@@H](C)C(N)=O,"Protein ENL, YEATS domain (MLLT1, Homo sapiens, UniProt Q03111)","binding, tryptophan fluorescence",,pH 7.0,13 µM
CC(C)(C)c1cc(C(=O)Nc2cccnc2)cc(C(=O)Nc2cccnc2)c1,GAP50,"binding, surface plasmon resonance",,1:1 binding model,90.5 µM
O=C(O)Cc1cc(-c2ccc(C(=O)O)s2)sc1-c1ccc(-c2sc(-c3ccc(C(=O)O)s3)cc2CC(=O)O)s1,"Microtubule-associated protein tau, 0N4R isoform, aggregated (MAPT, Homo sapiens, UniProt P10636)","binding, fluorescence",10% sucrose tau fraction,,30 µM
O=C(O)CCc1ccno1,USP51 ZnF-UBD domain,,,,> 1000 µM
Nc1ccn([C@H]2C[C@H](O)[C@@H](COP(=O)(O)OP(=O)(O)OP(=O)(O)O)O2)c(=O)n1,"DNA repair protein REV1, residues 1-746 (REV1, Saccharomyces cerevisiae, UniProt P12689)","substrate, rapid chemical quench",,"pH 7.5, 30 °C, together with: primer-template DNA",32 ± 7 µM
O=C(O)CCc1ccccc1,USP51 ZnF-UBD domain,,,,> 1000 µM
Oc1ccc(Sc2ccc(O)cc2)cc1,"HSP90AA1 (Homo sapiens, UniProt P07900)","binding, fluorescence polarization competition",,together with: geldanamycin-FITC,21.3 ± 6.1 µM
NC(=O)C[C@H](N)C(=O)O,SAR11_1346 protein (Candidatus Pelagibacter sp.),"binding, isothermal titration calorimetry",,one-set-of-sites model,0.301 µM
Nc1ncnc2c1ncn2[C@@H]1O[C@H](COP(=O)(O)OP(=O)(O)O)[C@@H](O)[C@H]1O,"CKMT1A (Homo sapiens, UniProt P12532, H99A)",microscale thermophoresis,,"pH 7.0, H61A mutant, no substrate",58 ± 19 µM
Nc1nc2c(ncn2[C@@H]2O[C@H](COP(=O)(O)OP(=O)(O)O)[C@@H](OP(=O)(O)OP(=O)(O)O)[C@H]2O)c(=O)[nH]1,"Amidophosphoribosyltransferase (purF, Escherichia coli, UniProt P0AG16)",isothermal titration calorimetry,,,1.2 µM
O=C(O)CCC(=O)Nc1cccc2ccccc12,USP51 ZnF-UBD domain,,,,> 1000 µM
O=C(O)c1ccccc1Sc1ncnc2sc3c(c12)CCC3,GAP50,"binding, surface plasmon resonance",,1:1 binding model,60.2 µM
Cc1cc2nc3c(=O)[nH]c(=O)nc-3n(C[C@H](O)[C@H](O)[C@H](O)COP(=O)(O)OP(=O)(O)OC[C@H]3O[C@@H](n4cnc5c(N)ncnc54)[C@H](O)[C@@H]3O)c2cc1C,"FMR1-interacting protein NUFIP2 (NUFIP2, Homo sapiens, UniProt Q7Z417)","binding, MS pulldown competition",SW-620 cell lysate,,0.087 µM
CC(C)(C)NC(=O)[C@@H]1CN(Cc2cnc3occc3c2)CCN1C[C@@H](O)C[C@@H](Cc1ccccc1)C(=O)N[C@H]1c2ccccc2C[C@H]1O,GAP50,"binding, surface plasmon resonance",,1:1 binding model,0.123 µM
CC(=O)N[C@H]1C(O)O[C@H](CO)[C@@H](O)[C@@H]1O[C@H](C)C(=O)N[C@@H](C)C(=O)N[C@H](CCC(=O)O)C(N)=O (mixture of isomers),"Nucleotide-binding oligomerization domain-containing protein 2, LRR domain (NOD2, Homo sapiens, UniProt Q9HC29)","binding, SPR, immobilised ligand",,LRR domain wild type,0.212 ± 0.024 µM
NC(=O)c1cc(-n2c(CCC(=O)O)nc3ccccc32)cs1,USP51 ZnF-UBD domain,,,,> 1000 µM
OC[C@H]1OC(O)[C@H](O)[C@@H](O)[C@@H]1O (stereo partly shown),"Hexokinase-3 (HK3, Homo sapiens, UniProt P52790)","binding, isothermal titration calorimetry",,"pH 8.0, 25 °C",6.2 ± 0.6 µM
Cc1ccc(S(=O)(=O)Nc2ccc(CN3CCN(C(=O)c4cccc(C#N)c4)CC3)cc2)cc1,GAP50,"binding, surface plasmon resonance",,1:1 binding model,43.3 µM
CO[C@H]1O[C@H](COS(=O)(=O)O)[C@@H](O[C@@H]2O[C@@H](C(=O)O)[C@@H](O[C@H]3O[C@H](COS(=O)(=O)O)[C@@H](O[C@@H]4O[C@H](C(=O)O)[C@@H](O[C@H]5O[C@H](COS(=O)(=O)O)[C@@H](O)[C@H](O)[C@H]5NS(=O)(=O)O)[C@H](O)[C@H]4O)[C@H](OS(=O)(=O)O)[C@H]3NS(=O)(=O)O)[C@H](O)[C@H]2OS(=O)(=O)O)[C@H](O)[C@H]1NS(=O)(=O)O,"Beta-2-glycoprotein 1, domain V (APOH, Homo sapiens, UniProt P02749, V266L)",isothermal titration calorimetry,25 mM cacodylate buffer,"pH 7.2, 298 K, together with: 50 mM NaCl",4.4 µM
O=c1ccn([C@@H]2O[C@H](COP(=O)(O)OP(=O)(O)O)[C@@H](O)[C@H]2O)c(=O)[nH]1,"ABO (Homo sapiens, UniProt P16442, G268A/L266G)",methyl-TROSY NMR titration,,apo enzyme,37 ± 1 µM
O=C(O)COc1cnc2ccccc2n1,USP51 ZnF-UBD domain,,,,> 1000 µM
CC(C)(COP(=O)(O)OP(=O)(O)OC[C@H]1O[C@@H](n2cnc3c(N)ncnc32)[C@H](O)[C@@H]1OP(=O)(O)O)[C@@H](O)C(=O)NCCC(=O)NCCS,"GNPNAT1 (Homo sapiens, UniProt Q96EK6)","competitor, competition MS pulldown",SW-620 cell lysate,together with: photo-immobilized beads,26.3 µM
NCc1ccc(C(F)(F)F)cc1,Maoa,,,"pH 7.5, deprotonated amine, pKa-corrected",15 µM
CCCCCCCCNC(=N)N,"voltage-gated sodium channel, squid","steady-state sodium current, open-channel blocker, voltage clamp, internal perfusion","Doryteuthis pealeii, pronase-treated giant axon","pH 7.3, 8-10 °C, inactivation removed, internal",23 µM
CC(=O)NC1C(O)OC(CN)C(O)[C@@H]1O[C@H](C)C(=O)N[C@@H](C)C(=O)N[C@H](CCC(=O)O)C(N)=O (stereo partly shown),"Nucleotide-binding oligomerization domain-containing protein 2, LRR domain (NOD2, Homo sapiens, UniProt Q9HC29, W931A)",surface plasmon resonance,,LRR mutant W931A,0.78 ± 0.133 µM
COc1ccccc1O,"Aromatic O-demethylase, cytochrome P450 subunit (gcoA, Amycolatopsis sp., UniProt P0DPQ7)","binding, ferric spin-state titration",Amycolatopsis sp. ATCC 39116,ferric enzyme without reductase,0.13 ± 0.02 µM
N#CC(=Cc1cccc2[nH]ccc12)C(N)=O,2-mercaptoethanol,"thiol adduct formation, UV-visible titration",PBS,pH 7.4,6230 ± 1190 µM
N[C@@H](CO)C(=O)O,SAR11_1346 protein (Candidatus Pelagibacter sp.),"binding, isothermal titration calorimetry",,one-set-of-sites model,0.13 µM and 0.267 µM
CCN(CC)Cc1ccc2cc(COC(=O)Nc3ccc(C(=O)NO)cc3)ccc2c1,HDAC10,"inhibitor, competition pulldown",SW620 and MV4-11 lysate,1 h,1.32 µM
N=C(N)NCCCCC(=O)Nc1cc(C(F)(F)F)cc(NC(=O)c2cc(C(=O)Nc3cc(C(F)(F)F)cc(NC(=O)CCCCNC(=N)N)c3O[C@@H]3CCNC3)ncn2)c1O[C@@H]1CCNC1,GAP50,"binding, surface plasmon resonance",,1:1 binding model,2.8 µM
C[C@H](N)C(=O)N[C@H](CCC(=O)O)C(N)=O,"Nucleotide-binding oligomerization domain-containing protein 2, LRR domain (NOD2, Homo sapiens, UniProt Q9HC29, S933A)",surface plasmon resonance,,LRR mutant S933A,0.615 ± 0.086 µM
CC(C)C[C@H](NC(=O)[C@@H]1CCCN1C(=O)[C@H](CCC(N)=O)NC(=O)[C@H](CC(N)=O)NC(=O)[C@H](Cc1c[nH]cn1)NC(=O)[C@H](Cc1ccc(OP(=O)(O)O)cc1)NC(=O)[C@@H](NC(=O)[C@@H]1CCCN1C(=O)[C@H](CC(N)=O)NC(=O)[C@H](CCC(N)=O)NC(=O)[C@@H](NC(=O)[C@H](CO)NC(=O)CNC(=O)[C@H](C)NC(=O)[C@@H]1CCCN1C(=O)c1ccc2c(c1)C(=O)OC21c2ccc(N(C)C)cc2Oc2cc(N(C)C)ccc21)C(C)C)C(C)C)C(=O)N[C@@H](CC(N)=O)C(=O)N1CCC[C@H]1C(=O)N[C@@H](CC(=O)O)C(=O)O,"Tyrosine-protein kinase ABL2, SH2 domain (ABL2, Homo sapiens, UniProt P42684)",binding,,,0.062 µM
CC(C)N1CCC(NC(=O)c2cc3[nH]ccc3cc2Cl)CC1,"Nuclear receptor subfamily 4 group A member 2 (Homo sapiens, UniProt P43354)",isothermal titration calorimetry,,25 °C,no binding
CCOc1nc2cccc(C(=O)O)c2n1Cc1ccc(-c2ccccc2-c2nnn[nH]2)cc1,"LCN2 (Homo sapiens, UniProt P80188, C107S)",NMR titration line-shape fit,,induced fit model,5.2 ± 0.1 µM
NCc1ccc(Br)cc1,Maoa,,,"pH 7.5, deprotonated amine, pKa-corrected",0.76 µM
C[N+](C)(C)CC(=O)O,"uncharacterized protein (Pelagibacter ubique, UniProt Q4FKZ8)",isothermal titration calorimetry,Candidatus Pelagibacter ubique,direct titration,< 0.005 µM
CC(C)C[C@@H]1NC(=O)[C@H](C(C)C)NC(=O)CNC(=O)[C@H](CC(N)=O)NC(=O)[C@@H]2CCCN2C(=O)[C@H](Cc2ccc(O)cc2)NC(=O)[C@H](CCCNC(=N)N)NC(=O)[C@H](Cc2ccccc2)NC(=O)[C@@H](NC(=O)[C@H](CCCCN)NC(=O)[C@@H]2CCCN2C(=O)[C@H](C)NC(=O)[C@H](C)NC(=O)[C@@H](N)Cc2ccc(O)cc2)CSSC[C@@H](C(=O)N[C@H](C(N)=O)[C@@H](C)O)NC(=O)[C@H](C)NC1=O,fucoidan,"binding, isothermal titration calorimetry",,"pH 7.0, 25 °C",0.31 µM
Cc1cc(NC(=O)CCC(=O)O)nn1C,USP51 ZnF-UBD domain,,,,> 1000 µM
Cc1ccccc1C(=O)N1N=C(Nc2ccccc2)SC1(C)C,GAP50,"binding, surface plasmon resonance",,1:1 binding model,0.289 µM
CC(C)C[C@H](NC(=O)[C@@H]1CCCN1C(=O)CNC(=O)c1ccc2c(c1)C(=O)OC21c2ccc(O)cc2Oc2cc(O)ccc21)C(=O)N[C@@H](C)C(=O)N[C@H](C(=O)N[C@@H](CO)C(=O)N[C@H](C(=O)N1CCC[C@H]1C(=O)N[C@@H](CCCCN)C(=O)N[C@@H](CC(N)=O)C(=O)NCC(=O)O)[C@@H](C)OP(=O)(O)O)[C@@H](C)O,"Serine/threonine-protein kinase PLK3, polo-box domain (PLK3, Homo sapiens, UniProt Q9H4B4)",,,,0.167 ± 0.0173 µM
NCc1ccccc1,Maoa,"binding, steady-state isotope effects",,"pH 7.5, pKa-corrected, deprotonated amine",6.7 µM
O=C(O)CCn1c(=O)oc2ccccc21,USP51 ZnF-UBD domain,,,,> 1000 µM
Nc1nc(-c2ccc(Cl)c(S(N)(=O)=O)c2)cs1,"CA14 (Homo sapiens, UniProt Q9ULX7)",thermal shift,,"pH 7.0, 25 °C",0.02 µM
CC(=O)N[C@@H]1[C@@H](O)[C@H](O)[C@@H](CO)O[C@H]1O,"Nucleotide-binding oligomerization domain-containing protein 2, LRR domain (NOD2, Homo sapiens, UniProt Q9HC29, R877A)",surface plasmon resonance,,LRR mutant R877A,1.34 ± 0.093 µM
Nc1nc2c(ncn2[C@@H]2O[C@H](COP(=O)(O)OP(=O)(O)O)[C@@H](O)[C@H]2O)c(=O)[nH]1,"GTP-binding protein gtr2, with Gtr1 (gtr2, Schizosaccharomyces pombe, UniProt O74544, F161W)","binding, UV crosslinking equilibrium titration",,"4 °C, no 7.4",0.68 µM

# For quick reference, copied from above:
SMILES,target,assay,system,conditions,Kd
CCCCCCCCNC(=N)N,"voltage-gated sodium channel, squid","steady-state sodium current, open-channel blocker, voltage clamp, internal perfusion","Doryteuthis pealeii, pronase-treated giant axon","pH 7.3, 8-10 °C, inactivation removed, internal",23 µM
CC(=O)NC1C(O)OC(CN)C(O)[C@@H]1O[C@H](C)C(=O)N[C@@H](C)C(=O)N[C@H](CCC(=O)O)C(N)=O (stereo partly shown),"Nucleotide-binding oligomerization domain-containing protein 2, LRR domain (NOD2, Homo sapiens, UniProt Q9HC29, W931A)",surface plasmon resonance,,LRR mutant W931A,0.78 ± 0.133 µM
COc1ccccc1O,"Aromatic O-demethylase, cytochrome P450 subunit (gcoA, Amycolatopsis sp., UniProt P0DPQ7)","binding, ferric spin-state titration",Amycolatopsis sp. ATCC 39116,ferric enzyme without reductase,0.13 ± 0.02 µM
N#CC(=Cc1cccc2[nH]ccc12)C(N)=O,2-mercaptoethanol,"thiol adduct formation, UV-visible titration",PBS,pH 7.4,6230 ± 1190 µM
N[C@@H](CO)C(=O)O,SAR11_1346 protein (Candidatus Pelagibacter sp.),"binding, isothermal titration calorimetry",,one-set-of-sites model,0.13 µM and 0.267 µM
